Published values from different studies.
Several values in a cell are separate wells, animals, samples, runs or records. ± gives the spread as reported. Values after ≈ are worked out from the molar mass of the structure shown.

Compound = O=C1NC2(CC2)COc2ncc(F)cc2[C@H]2COCCN2c2ccn3ncc1c3n2; system = Sprague-Dawley rat, female, blood; conditions = oral, 20 mg/kg/day, 4 weeks, end of recovery, subacute toxicity; quantity = monocyte percentage; result = 1.5 ± 0.9%
Compound = CC[C@@H]1CN2CCc3c([nH]c4cccc(OC)c34)[C@@H]2C[C@@H]1/C(=C\OC)C(=O)OC; target or system = rabbit anti-mitragynine polyclonal IgG; assay = antigen binding, competitor, competitive indirect ELISA; system = 15% methanol; conditions = 30 min antibody-standard, 60 min antibody-antigen incubation; quantity = IC50; result = 1.29 µg/mL and 1.3 µg/mL
Compound = Cc1ccc2c(n1)c(-c1cccc(S(C)(=O)=O)c1)c(C)n2C/C(F)=C/CN; target or system = L-type calcium channel, rat, Dihydropyridine site; assay = radioligand binding, Eurofins SafetyScreen; conditions = 10 µM; quantity = inhibition; result = 39%
Compound = CSCC[C@H](NC(=O)[C@H](CCC(=O)O)NC(=O)[C@H](CS)NC(=O)[C@H](Cc1ccccc1)NC(=O)[C@H](CC(N)=O)NC(=O)[C@@H]1CCCN1C(=O)[C@@H]1CCCN1C(=O)[C@H](CC(N)=O)NC(=O)[C@H](CC(C)C)NC(=O)[C@H](CCSC)NC(=O)[C@H](CC(C)C)NC(=O)[C@H](CS)NC(=O)[C@H](CCC(N)=O)NC(=O)CNC(=O)[C@H](Cc1ccc(O)cc1)NC(=O)[C@@H](NC(=O)[C@@H](NC(=O)[C@@H]1CCCN1C(=O)[C@@H](N)CS)C(C)C)[C@@H](C)O)C(=O)N[C@@H](CC(=O)O)C(=O)NCC(=O)N[C@@H](CCC(N)=O)C(=O)N[C@@H](CS)C(=O)N[C@@H](CCCCN)C(=O)O; target or system = JNK (mouse); assay = Western blot; system = RAW264.7; conditions = 1 µg/mL; how to read = reference: vehicle; quantity = JNK/β-actin ratio; result = decreased
Compound = CC(C)CC(O)(CC(C)C)c1cn(C(=O)N2CCCC2)nn1; target or system = other serine hydrolases, human and rat; assay = inhibitor, gel-based competitive ABPP; system = cancer cell proteomes; conditions = concentration not given, 30 min, 37 °C; quantity = inhibition; result = no inhibition
Compound = COc1ccc(C(C)(C)CC(C)(C)C)cc1; target or system = HBV core protein Cp149 dimer; assay = solution NMR; conditions = 4 molar equivalents, pH 7.5, 295 K, average over eight residues; how to read = reference: apo Cp149 dimer; quantity = average chemical shift perturbation; result = 0.077 ppm
Compound = CC(C)[C@H](NC(=O)[C@H](CCCNC(=N)N)NC(=O)[C@H](Cc1c[nH]c2ccccc12)NC(=O)CN)C(=O)N[C@@H](CO)C(=O)N[C@@H](CCC(=O)O)C(=O)N[C@@H](Cc1ccccc1)C(=O)NCC(=O)NCC(=O)NCC(=O)N[C@@H](CO)C(=O)N[C@@H](CCCCNC(=O)CCCC[C@@H]1SC[C@@H]2NC(=O)N[C@@H]21)C(=O)O; target or system = cowpea mosaic virus particles; assay = binding, competitive phage ELISA; system = cowpea mosaic virus; quantity = IC50; result = 1140 nM
Compound = CC(C)[C@H](NC(=O)C(NC(=O)CC[C@H](N)C(=O)O)C(O)C(N)=O)C(=O)N(C)CC(=O)N[C@H](Cc1c[nH]c2ccc([N+](=O)[O-])cc12)C(=O)NC[C@@H]1NC(=O)[C@@H](Cc2c[nH]c3ccc([N+](=O)[O-])cc23)NC1=O (some centres unmarked); target or system = TrmD; system = Escherichia coli, engineered MG1655 TrmD-expressing tolC+; conditions = M9 medium with arabinose; quantity = MIC; result = 100 µM (≈ 97.8 µg/mL)
Compound = Nc1ncc(-c2cc(-c3cnn(CC(F)(F)F)c3)ncc2F)nc1C(=O)NC1CNCC(F)C1 (centres unmarked); target or system = ABL1(Y253F)-phosphorylated; assay = KINOMEscan competition binding; conditions = 1 µM; how to read = reference: DMSO control; quantity = remaining binding; result = 85%
Compound = CC[C@H](C)[C@@H]1NC(=O)CNC(=O)[C@H](CC(=O)O)NC(=O)[C@H](CC(=O)O)NC(=O)[C@@H]2CSSC[C@@H]3NC(=O)[C@H](Cc4c[nH]cn4)NC(=O)[C@H](CCCNC(=N)N)NC(=O)[C@H](CCCNC(=N)N)NC(=O)[C@@H](NC(=O)[C@H](CO)NC(=O)[C@@H](N)Cc4c[nH]cn4)CSSC[C@H](NC(=O)[C@H](C)NC(=O)[C@H](Cc4c[nH]c5ccccc45)NC(=O)CNC(=O)[C@H](CSSC[C@@H](C(=O)N[C@@H](CCCCN)C(=O)N4CCC[C@H]4C(=O)N[C@@H](CC(C)C)C(=O)N[C@@H](CCCNC(=N)N)C(=O)N[C@H](C(=O)O)C(C)C)NC1=O)NC(=O)[C@H](CCCNC(=N)N)NC(=O)[C@H](CCCNC(=N)N)NC(=O)[C@H](CC(N)=O)NC(=O)[C@H](CCC(=O)O)NC(=O)[C@H](Cc1c[nH]cn1)NC3=O)C(=O)N[C@@H](Cc1ccc(O)cc1)C(=O)N2; target or system = hKv1.3 human; conditions = concentration not given; quantity = ion current; result = no effect
Compound = CCOC(=O)[C@](CC)(CCCSCCOCCOCCNC(=O)c1ccc(-c2c3ccc(=N)c(S(=O)(=O)O)c-3oc3c(S(=O)(=O)O)c(N)ccc23)c(C(=O)O)c1)NC(=O)c1ccc(C2CC2)c(Cc2ccc(F)cc2)n1; target or system = HIV-1 protease; assay = enzyme activity; conditions = 10 µM; quantity = inhibition; result = 47%

Repeated from above:
Compound = COc1ccc(C(C)(C)CC(C)(C)C)cc1; target or system = HBV core protein Cp149 dimer; assay = solution NMR; conditions = 4 molar equivalents, pH 7.5, 295 K, average over eight residues; how to read = reference: apo Cp149 dimer; quantity = average chemical shift perturbation; result = 0.077 ppm
